{"data": "Assay results gathered from unrelated publications", "matrix": "plasma", "note": "Each line is one published result; not all experiments were run side by side. Numbers after ± are the reported error."}
{"Structure (SMILES)": "CC(=O)N[C@H](CSSC[C@H](N)C(=O)O)C(=O)N[C@H](C)C(=O)N[C@H](CCCNC(=N)N)C(=O)N[C@H](CCCNC(=N)N)C(=O)N[C@H](CCCNC(=N)N)C(=O)N[C@H](C)C(=O)N[C@H](CCCNC(=N)N)C(N)=O", "host": "male human", "route": "intravenous", "dose": "0.5 mg", "notes": "single dose, healthy volunteers", "Cmax": "42.9 ng/mL"}
{"Structure (SMILES)": "[2H]C([2H])([2H])NC(=O)c1ccc(N2C(=S)N(c3ccc(C#N)c(C(F)(F)F)c3)C(=O)C2(C)C)cc1F", "host": "male human", "route": "oral", "dose": "40 mg", "notes": "single dose, fasted", "Cmax": "1480 ng/mL"}
{"Structure (SMILES)": "CN1CCC[C@]1(C)/C=C/S(=O)(=O)NC(=O)Nc1c2c(cc3c1CCC3)CCC2", "host": "human", "route": "oral", "dose": "25 mg", "notes": "single dose, healthy volunteers", "Cmax": "3200 ng/mL"}
{"Structure (SMILES)": "O=C(CCc1ccc(CNC(C(=O)OC2CCCC2)C2CCCCC2)cn1)NO (stereo not drawn)", "host": "human", "route": "oral", "dose": "60 mg", "notes": "single dose, patients", "Cmax": "288 ng/mL"}
{"Structure (SMILES)": "Cc1ccc(OCC(=O)O)cc1", "host": "Sprague-Dawley rat Crl:CD(SD), female", "route": "oral", "dose": "10 mg/kg/day of parent drug", "time": "day 90", "notes": "90-day repeated dosing", "Cmax": "1670 ± 226 ng/mL"}
{"Structure (SMILES)": "CC(C)[C@H](NC(=O)CNC(=O)[C@H](CCC(N)=O)NC(=O)[C@H](C)N)C(=O)O", "host": "male human", "route": "intravenous", "dose": "3 mg/kg", "notes": "single dose", "Cmax": "115 ng/mL"}
{"Structure (SMILES)": "CC(C)(O)c1ncc([S@](N)(=O)=NC(=O)Nc2c3c(cc4c2CCC4)CCC3)s1", "host": "human", "route": "oral", "dose": "10 mg", "notes": "single dose, fasted, healthy volunteers", "Cmax": "1230 ng/mL"}
{"Structure (SMILES)": "CC12CC(c3ccc(S(C)(=O)=O)cc3)C3=C4CCC(=O)C=C4CCC3C1CCC2(O)C(F)(F)C(F)(F)F (stereo not drawn)", "host": "human", "route": "oral", "dose": "5 mg", "notes": "single dose, fasted", "Cmax": "~25 ng/mL"}
{"Structure (SMILES)": "CC(=O)N[C@H](CC(=O)O)C(=O)N[C@H](Cc1c[nH]c2ccccc12)C(=O)N[C@H](Cc1ccccc1)C(=O)N[C@H](CCCCN)C(=O)N[C@H](C)C(=O)N[C@H](Cc1ccccc1)C(=O)N[C@H](Cc1ccc(O)cc1)C(=O)N[C@H](CC(=O)O)C(=O)N[C@H](CCCCN)C(=O)N[C@@H](C(=O)N[C@H](C)C(=O)N[C@H](CCC(=O)O)C(=O)N[C@H](CCCCN)C(=O)N[C@H](Cc1ccccc1)C(=O)N[C@H](CCCCN)C(=O)N[C@H](CCC(=O)O)C(=O)N[C@H](C)C(=O)N[C@H](Cc1ccccc1)C(N)=O)C(C)C", "host": "statin-treated high-risk CHD patients", "route": "oral", "dose": "500 mg daily", "time": "day 1, 0 to 2 h", "notes": "mean, all subjects", "Cmax": "64.6 ng/mL"}
{"note": "Repeated from above:"}
{"Structure (SMILES)": "CC12CC(c3ccc(S(C)(=O)=O)cc3)C3=C4CCC(=O)C=C4CCC3C1CCC2(O)C(F)(F)C(F)(F)F (stereo not drawn)", "host": "human", "route": "oral", "dose": "5 mg", "notes": "single dose, fasted", "Cmax": "~25 ng/mL"}
